{"data": "Measured values of several laboratories", "note": "Parts stem from different laboratories: compare values within a part only. Several values in a cell are separate wells, animals, samples, runs or records.", "sequence of UniProt Q9H2K8 (whole entry, looked up)": "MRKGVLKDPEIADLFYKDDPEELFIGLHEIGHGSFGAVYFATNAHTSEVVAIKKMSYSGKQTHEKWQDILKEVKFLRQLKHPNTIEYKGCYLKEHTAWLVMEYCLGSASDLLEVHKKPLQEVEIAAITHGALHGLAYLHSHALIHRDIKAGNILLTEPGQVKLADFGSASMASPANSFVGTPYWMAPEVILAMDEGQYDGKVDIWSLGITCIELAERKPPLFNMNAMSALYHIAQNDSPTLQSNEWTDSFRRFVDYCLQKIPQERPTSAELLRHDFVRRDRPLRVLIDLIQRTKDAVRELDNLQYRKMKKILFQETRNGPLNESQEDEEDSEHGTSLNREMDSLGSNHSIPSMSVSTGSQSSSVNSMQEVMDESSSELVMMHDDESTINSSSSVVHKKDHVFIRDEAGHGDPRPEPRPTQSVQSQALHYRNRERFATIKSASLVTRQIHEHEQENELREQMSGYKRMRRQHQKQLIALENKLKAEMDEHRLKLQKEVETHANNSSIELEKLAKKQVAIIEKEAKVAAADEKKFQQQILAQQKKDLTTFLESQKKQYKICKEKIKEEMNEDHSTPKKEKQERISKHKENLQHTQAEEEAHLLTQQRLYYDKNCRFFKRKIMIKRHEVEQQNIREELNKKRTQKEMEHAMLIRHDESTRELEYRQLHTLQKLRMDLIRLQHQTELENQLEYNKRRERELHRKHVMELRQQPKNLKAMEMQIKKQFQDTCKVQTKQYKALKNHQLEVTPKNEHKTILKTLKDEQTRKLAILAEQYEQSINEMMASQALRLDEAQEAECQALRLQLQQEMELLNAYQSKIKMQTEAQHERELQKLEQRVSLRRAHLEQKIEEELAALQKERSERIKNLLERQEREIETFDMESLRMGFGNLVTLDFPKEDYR", "sequence of UniProt P00519 (whole entry, unmodified, looked up)": "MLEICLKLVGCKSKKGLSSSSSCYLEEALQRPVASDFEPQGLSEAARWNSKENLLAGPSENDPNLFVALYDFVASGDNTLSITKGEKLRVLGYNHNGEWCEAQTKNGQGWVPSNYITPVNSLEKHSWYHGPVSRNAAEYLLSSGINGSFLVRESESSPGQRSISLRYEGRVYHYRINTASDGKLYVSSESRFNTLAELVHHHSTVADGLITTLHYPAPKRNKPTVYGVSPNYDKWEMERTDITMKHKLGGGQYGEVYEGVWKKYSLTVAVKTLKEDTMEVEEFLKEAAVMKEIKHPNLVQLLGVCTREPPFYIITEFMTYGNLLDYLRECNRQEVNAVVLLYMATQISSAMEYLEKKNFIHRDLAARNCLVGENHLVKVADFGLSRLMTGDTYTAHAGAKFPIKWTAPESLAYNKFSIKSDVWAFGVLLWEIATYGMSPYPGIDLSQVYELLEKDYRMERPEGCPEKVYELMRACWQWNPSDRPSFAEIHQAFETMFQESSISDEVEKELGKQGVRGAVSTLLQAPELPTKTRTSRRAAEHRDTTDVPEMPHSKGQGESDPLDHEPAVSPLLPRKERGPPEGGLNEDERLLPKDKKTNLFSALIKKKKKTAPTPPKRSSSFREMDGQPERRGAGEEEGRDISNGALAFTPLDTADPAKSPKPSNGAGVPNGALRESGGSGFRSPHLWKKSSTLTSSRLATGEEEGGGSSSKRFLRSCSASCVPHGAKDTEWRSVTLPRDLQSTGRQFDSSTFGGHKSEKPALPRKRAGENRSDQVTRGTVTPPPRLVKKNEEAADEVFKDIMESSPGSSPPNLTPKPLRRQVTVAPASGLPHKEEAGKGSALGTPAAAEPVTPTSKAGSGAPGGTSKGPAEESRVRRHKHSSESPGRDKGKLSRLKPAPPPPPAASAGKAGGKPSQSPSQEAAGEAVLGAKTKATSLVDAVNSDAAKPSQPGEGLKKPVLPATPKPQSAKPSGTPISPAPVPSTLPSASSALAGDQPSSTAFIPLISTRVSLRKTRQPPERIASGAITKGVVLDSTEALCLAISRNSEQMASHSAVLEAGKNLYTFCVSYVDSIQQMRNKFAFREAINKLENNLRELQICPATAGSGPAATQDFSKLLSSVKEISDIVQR", "sequence of UniProt O00506 (whole entry, looked up)": "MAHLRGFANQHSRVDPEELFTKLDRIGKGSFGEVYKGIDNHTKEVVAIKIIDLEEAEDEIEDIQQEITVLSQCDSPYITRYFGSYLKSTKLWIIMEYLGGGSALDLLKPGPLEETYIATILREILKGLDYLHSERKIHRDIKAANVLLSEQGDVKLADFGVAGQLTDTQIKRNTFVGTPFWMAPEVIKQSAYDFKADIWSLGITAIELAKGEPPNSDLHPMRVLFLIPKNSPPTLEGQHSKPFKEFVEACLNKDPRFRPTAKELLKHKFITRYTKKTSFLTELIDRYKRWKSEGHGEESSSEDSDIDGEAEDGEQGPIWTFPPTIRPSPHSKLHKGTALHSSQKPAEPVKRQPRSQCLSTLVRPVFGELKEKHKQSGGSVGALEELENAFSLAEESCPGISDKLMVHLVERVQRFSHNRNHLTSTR"}
{"data": "Study 1", "target": "Bromodomain-containing protein 4, BD1 (BRD4, Homo sapiens, UniProt O60885)", "observed": "acetyl-histone H4 peptide binding", "technique": "AlphaScreen displacement", "concentration": "50 µM"}
{"Structure (SMILES)": "Nc1nc(NCc2ccccc2)c2nc[nH]c2n1", "inhibition": "74.2%"}
{"Structure (SMILES)": "CC(C)Oc1ccc(NC(=O)Nc2ccc(Cl)c(Cl)c2)cc1", "inhibition": "9.35%"}
{"Structure (SMILES)": "O=C(NCC1CCCO1)c1n[nH]c2ccccc12 (centres unmarked)", "inhibition": "1.45%"}
{"Structure (SMILES)": "CN1C=CC=CC1=C(C#N)c1nc2ccccc2s1", "inhibition": "64%"}
{"Structure (SMILES)": "N#CC(=Cc1ccc[nH]1)c1nc2ccc(C(F)(F)F)cc2s1", "inhibition": "29.1%"}
{"Structure (SMILES)": "Clc1ccc(CNc2cncc(-c3ccsc3)c2)cc1", "inhibition": "13.8%"}
{"Structure (SMILES)": "Nc1ccc(-c2c3ccc(=O)cc-3oc3cc(O)ccc23)cc1C(=O)O", "inhibition": "8.2%"}
{"Structure (SMILES)": "CN(C)CCCn1cc(C2=C(c3c[nH]c4ccccc34)C(=O)NC2=O)c2ccccc21.Cl", "inhibition": "86%"}
{"Structure (SMILES)": "Cc1ccc2c(c1)C(=NNC(=O)c1cccc(O)c1)C(=O)N2", "inhibition": "41.2%"}
{"Structure (SMILES)": "CCN(CC)CCNc1ccc(NCCN(CC)CC)c2c1C(=O)c1ccccc1C2=O", "inhibition": "64.5%"}
{"Structure (SMILES)": "O=C(NCc1ccc(F)cc1)c1n[nH]c2ccccc12", "inhibition": "1.25%"}
{"Structure (SMILES)": "O=C(Nc1ccc(F)cc1)c1n[nH]c2ccccc12", "inhibition": "6.65%"}
{"data": "Study 2", "SMILES": "O=C(NCc1ncc(C(F)(F)F)cc1Cl)c1ccc2c(c1)C1(CCS(=O)(=O)CC1)[C@@H](C1CC1)N2S(=O)(=O)c1ccc(F)cc1", "technique": "competition with immobilised ligand", "concentration": "1 µM"}
{"target": "DCLK3 (Homo sapiens, UniProt Q9C098)", "assay": "cell-free assay", "remaining binding": "69%"}
{"target": "BRAF (Homo sapiens, UniProt P15056, V600E)", "assay": "cell-free assay", "remaining binding": "90%"}
{"target": "PRKD2 (Homo sapiens, UniProt Q9BZL6)", "assay": "cell-free assay", "remaining binding": "90%"}
{"target": "EPHA7 (Homo sapiens, UniProt Q15375)", "assay": "cell-free assay", "remaining binding": "100%"}
{"target": "BMPR1A (Homo sapiens, UniProt P36894)", "assay": "binding", "remaining binding": "100%"}
{"target": "CAMK2D (Homo sapiens, UniProt Q13557)", "assay": "cell-free assay", "remaining binding": "100%"}
{"target": "PRKG1 (Homo sapiens, UniProt Q13976)", "assay": "cell-free assay", "remaining binding": "100%"}
{"target": "RIPK1 (Homo sapiens, UniProt Q13546)", "assay": "cell-free assay", "remaining binding": "30%"}
{"target": "TESK1 (Homo sapiens, UniProt Q15569)", "assay": "cell-free assay", "remaining binding": "85%"}
{"target": "PIK3C2B (Homo sapiens, UniProt O00750)", "assay": "cell-free assay", "remaining binding": "90%"}
{"target": "CLK3 (Homo sapiens, UniProt P49761)", "assay": "cell-free assay", "remaining binding": "100%"}
{"target": "Tyrosine-protein kinase ABL1, non-phosphorylated (ABL1, Homo sapiens, UniProt P00519, F317L)", "assay": "cell-free assay", "remaining binding": "68%"}
{"target": "PIK3CD (Homo sapiens, UniProt O00329)", "assay": "cell-free assay", "remaining binding": "67%"}
{"target": "PRKCE (Homo sapiens, UniProt Q02156)", "assay": "cell-free assay", "remaining binding": "76%"}
{"target": "BRSK2 (Homo sapiens, UniProt Q8IWQ3)", "assay": "cell-free assay", "remaining binding": "100%"}
{"target": "FGFR4 (Homo sapiens, UniProt P22455)", "assay": "cell-free assay", "remaining binding": "100%"}
{"target": "PI4KB (Homo sapiens, UniProt Q9UBF8)", "assay": "cell-free assay", "remaining binding": "100%"}
{"target": "MYLK4 (Homo sapiens, UniProt Q86YV6)", "assay": "cell-free assay", "remaining binding": "95%"}
{"target": "CAMK2G (Homo sapiens, UniProt Q13555)", "assay": "cell-free assay", "remaining binding": "84%"}
{"target": "CDK11B (Homo sapiens, UniProt P21127)", "assay": "cell-free assay", "remaining binding": "100%"}
{"data": "Study 3", "target": "DNA polymerase theta, ATPase domain (POLQ, Homo sapiens, UniProt O75417)", "observed": "enzyme activity", "action": "inhibitor", "concentration": "77 µM", "reference": "untreated", "sequence of UniProt O75417 (whole entry, unmodified, looked up)": "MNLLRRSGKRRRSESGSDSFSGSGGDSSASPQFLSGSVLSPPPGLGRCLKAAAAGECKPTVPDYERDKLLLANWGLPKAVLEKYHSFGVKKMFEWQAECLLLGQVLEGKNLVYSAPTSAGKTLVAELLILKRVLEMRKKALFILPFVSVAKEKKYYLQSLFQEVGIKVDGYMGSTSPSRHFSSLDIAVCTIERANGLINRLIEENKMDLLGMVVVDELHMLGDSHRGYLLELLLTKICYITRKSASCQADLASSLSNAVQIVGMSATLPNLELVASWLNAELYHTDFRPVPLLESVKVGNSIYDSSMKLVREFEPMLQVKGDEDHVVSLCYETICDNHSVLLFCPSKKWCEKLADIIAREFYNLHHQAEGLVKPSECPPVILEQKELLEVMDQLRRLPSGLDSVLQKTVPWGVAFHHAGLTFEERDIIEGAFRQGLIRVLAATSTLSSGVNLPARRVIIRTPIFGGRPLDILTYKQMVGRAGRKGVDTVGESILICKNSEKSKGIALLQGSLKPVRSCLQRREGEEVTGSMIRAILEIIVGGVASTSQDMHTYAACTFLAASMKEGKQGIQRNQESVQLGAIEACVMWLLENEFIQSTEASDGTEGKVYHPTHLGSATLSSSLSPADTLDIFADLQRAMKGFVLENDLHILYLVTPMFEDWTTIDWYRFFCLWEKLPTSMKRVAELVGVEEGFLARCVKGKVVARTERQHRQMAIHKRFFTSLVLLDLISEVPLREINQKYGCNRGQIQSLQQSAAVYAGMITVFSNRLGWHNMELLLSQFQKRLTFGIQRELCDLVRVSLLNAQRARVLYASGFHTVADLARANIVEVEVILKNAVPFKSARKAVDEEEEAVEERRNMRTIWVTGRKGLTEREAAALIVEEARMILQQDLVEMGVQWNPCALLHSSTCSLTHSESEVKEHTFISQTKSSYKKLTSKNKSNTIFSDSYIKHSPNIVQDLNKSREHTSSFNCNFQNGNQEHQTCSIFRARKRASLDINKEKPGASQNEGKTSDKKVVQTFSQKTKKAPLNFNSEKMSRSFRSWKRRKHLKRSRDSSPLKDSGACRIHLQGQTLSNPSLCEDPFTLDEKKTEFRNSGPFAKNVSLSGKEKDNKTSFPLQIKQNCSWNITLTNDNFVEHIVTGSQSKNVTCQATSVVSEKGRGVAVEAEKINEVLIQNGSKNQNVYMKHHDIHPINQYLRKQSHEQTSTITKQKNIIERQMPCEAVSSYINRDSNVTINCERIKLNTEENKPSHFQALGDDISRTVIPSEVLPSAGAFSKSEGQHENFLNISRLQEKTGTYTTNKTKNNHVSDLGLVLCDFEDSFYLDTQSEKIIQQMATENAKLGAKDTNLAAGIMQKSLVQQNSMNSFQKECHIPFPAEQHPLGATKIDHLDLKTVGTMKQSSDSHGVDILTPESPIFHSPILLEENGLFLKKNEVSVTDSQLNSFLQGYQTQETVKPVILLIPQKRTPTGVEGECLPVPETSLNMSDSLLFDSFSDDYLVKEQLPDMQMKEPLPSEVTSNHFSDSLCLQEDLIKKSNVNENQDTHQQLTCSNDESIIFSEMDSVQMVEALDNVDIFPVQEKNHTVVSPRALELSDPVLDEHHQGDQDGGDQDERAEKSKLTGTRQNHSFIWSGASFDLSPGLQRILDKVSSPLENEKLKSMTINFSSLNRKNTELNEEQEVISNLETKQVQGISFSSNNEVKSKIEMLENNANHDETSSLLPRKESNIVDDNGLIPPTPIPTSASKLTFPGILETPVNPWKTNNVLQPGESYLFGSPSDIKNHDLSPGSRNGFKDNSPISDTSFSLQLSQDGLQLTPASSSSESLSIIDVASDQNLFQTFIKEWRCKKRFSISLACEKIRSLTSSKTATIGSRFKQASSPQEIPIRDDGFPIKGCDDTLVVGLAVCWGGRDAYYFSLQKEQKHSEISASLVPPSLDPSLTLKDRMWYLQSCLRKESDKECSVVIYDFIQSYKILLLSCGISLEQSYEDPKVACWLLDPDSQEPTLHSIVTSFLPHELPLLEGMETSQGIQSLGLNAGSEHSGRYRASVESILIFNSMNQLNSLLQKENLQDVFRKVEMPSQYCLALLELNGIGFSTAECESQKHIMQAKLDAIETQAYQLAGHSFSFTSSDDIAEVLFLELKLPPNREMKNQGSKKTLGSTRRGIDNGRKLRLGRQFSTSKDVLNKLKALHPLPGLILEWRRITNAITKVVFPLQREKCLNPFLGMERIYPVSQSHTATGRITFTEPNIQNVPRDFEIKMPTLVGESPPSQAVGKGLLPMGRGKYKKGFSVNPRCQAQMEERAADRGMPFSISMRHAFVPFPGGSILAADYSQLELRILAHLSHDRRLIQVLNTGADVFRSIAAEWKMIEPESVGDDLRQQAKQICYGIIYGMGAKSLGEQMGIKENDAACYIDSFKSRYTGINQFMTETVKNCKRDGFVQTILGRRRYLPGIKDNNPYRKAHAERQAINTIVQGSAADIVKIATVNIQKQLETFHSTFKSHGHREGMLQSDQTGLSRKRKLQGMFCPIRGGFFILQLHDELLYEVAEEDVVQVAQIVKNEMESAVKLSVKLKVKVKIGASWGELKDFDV"}
{"Structure (SMILES)": "COc1cc(C)c(/C=C/C(C)=C/C=C/C(C)=C/C(=O)O)c(C)c1C", "remaining activity": "99.3%"}
{"Structure (SMILES)": "N=C(N)SCCc1c[nH]cn1", "remaining activity": "97.2%"}
{"Structure (SMILES)": "Nc1ncnc2c1ncn2C1CCCO1 (centres unmarked)", "remaining activity": "92%"}
{"Structure (SMILES)": "CC(N)=O", "remaining activity": "89.5%"}
{"Structure (SMILES)": "C=CC[N@@+]12CC[C@@]34c5ccccc5N5/C=C6/[C@H]7C[C@H]8[C@@]9(CC[N@@+]8(CC=C)C/C7=C/CO)c7ccccc7N(/C=C(/[C@@H](C[C@@H]31)/C(=C\\CO)C2)[C@H]54)[C@@H]69", "remaining activity": "91.9%"}
{"Structure (SMILES)": "Oc1cc(O)c(Cl)cn1", "remaining activity": "98.2%"}
{"Structure (SMILES)": "COc1cc(C(C)=O)ccc1OCCCN1CCC(c2noc3cc(F)ccc23)CC1", "remaining activity": "112%"}
{"Structure (SMILES)": "CC(=O)OCC(=O)[C@@]1(O)CC[C@H]2[C@@H]3CCC4=CC(=O)CC[C@]4(C)[C@H]3C(=O)C[C@@]21C", "remaining activity": "92.6%"}
{"Structure (SMILES)": "NCCSSCCN", "remaining activity": "104%"}
{"Structure (SMILES)": "OCCC#Cc1nc(-c2ccc(F)cc2)c(-c2ccncc2)n1CCCc1ccccc1", "remaining activity": "115% and 113% and 114%"}
{"Structure (SMILES)": "O=C(Nc1ccncc1)c1cc([N+](=O)[O-])ccc1Cl", "remaining activity": "79.7%"}
{"Structure (SMILES)": "CC(C(=O)O)c1ccc(CC2CCCC2=O)cc1 (centres unmarked)", "remaining activity": "105%"}
{"Structure (SMILES)": "Cn1c(=O)c2nc[nH]c2n(C)c1=O", "remaining activity": "93% and 111%"}
{"Structure (SMILES)": "O=C1Cc2c([nH]c3ccc([N+](=O)[O-])cc23)-c2ccccc2N1", "remaining activity": "93.6%"}
{"Structure (SMILES)": "CCCCCCCCCCCCCCCCCCN(CCCCCCCCCCCCCCCCCC)CCCN(CCO)CCO", "remaining activity": "108%"}
{"data": "Study 4", "SMILES": "O=S(=O)(NCCNC/C=C/c1ccc(Br)cc1)c1cccc2cnccc12", "observed": "enzyme activity", "action": "inhibitor", "concentration": "0.5 µM", "reference": "control"}
{"target": "CDC42BPA (Homo sapiens, UniProt Q5VT25)", "remaining activity": "97.5%"}
{"target": "LIM domain kinase 1 (LIMK1, Homo sapiens, UniProt P53667)", "remaining activity": "90.6%"}
{"target": "Insulin receptor (INSR, Homo sapiens, UniProt P06213)", "remaining activity": "94.3%"}
{"target": "FER (Homo sapiens, UniProt P16591)", "remaining activity": "97.6%"}
{"target": "TAOK3 (Homo sapiens, UniProt Q9H2K8)", "remaining activity": "95.4%"}
{"target": "Cyclin-dependent kinase 3, with cyclin E (CDK3, Homo sapiens, UniProt Q00526)", "remaining activity": "77.3%"}
{"target": "FGR (Homo sapiens, UniProt P09769)", "remaining activity": "106%"}
{"target": "FYN (Homo sapiens, UniProt P06241)", "remaining activity": "107%"}
{"target": "ITK (Homo sapiens, UniProt Q08881)", "remaining activity": "86.8%"}
{"target": "NLK (Homo sapiens, UniProt Q9UBE8)", "remaining activity": "94.9%"}
{"target": "MARK3 (Homo sapiens, UniProt P27448)", "remaining activity": "96.2%"}
{"target": "PRKX (Homo sapiens, UniProt P51817)", "remaining activity": "-2.49%"}
{"target": "FLT4 (Homo sapiens, UniProt P35916)", "remaining activity": "108%"}
{"target": "ALK (Homo sapiens, UniProt Q9UM73)", "remaining activity": "101%"}
{"target": "MATK (Homo sapiens, UniProt P42679)", "remaining activity": "96.1%"}
{"target": "PASK (Homo sapiens, UniProt Q96RG2)", "remaining activity": "94.5%"}
{"target": "HIPK1 (Homo sapiens, UniProt Q86Z02)", "remaining activity": "91.4%"}
{"target": "SRC (Homo sapiens, UniProt P12931)", "remaining activity": "90.1%"}
{"target": "PKN1 (Homo sapiens, UniProt Q16512)", "remaining activity": "14.3%"}
{"target": "STK25 (Homo sapiens, UniProt O00506)", "remaining activity": "104%"}
{"target": "NEK11 (Homo sapiens, UniProt Q8NG66)", "remaining activity": "92.7%"}
